Published values gathered from unrelated publications.
Each numbered part is a random draw from the data of one study; scales do not carry over between parts. Changes are numbered by the printed parent chain.

Series 1 — method: DHFR PCA, deep sequencing; matrix: yeast; added: (+)-ABA 0 µM; relative to: wild-type fitted maximum; reading: higher = stronger binding; endpoint: relative binding score
Target: ABI1, truncated, D143A, DHFR fusion (Arabidopsis thaliana)
Setting: methotrexate growth selection, single substitutions
Parent: PYL1, truncated, DHFR fusion (Arabidopsis thaliana); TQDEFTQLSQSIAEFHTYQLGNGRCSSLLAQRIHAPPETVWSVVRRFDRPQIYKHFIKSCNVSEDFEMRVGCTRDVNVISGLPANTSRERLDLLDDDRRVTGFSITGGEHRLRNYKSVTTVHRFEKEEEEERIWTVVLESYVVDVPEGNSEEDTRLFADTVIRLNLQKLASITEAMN; partner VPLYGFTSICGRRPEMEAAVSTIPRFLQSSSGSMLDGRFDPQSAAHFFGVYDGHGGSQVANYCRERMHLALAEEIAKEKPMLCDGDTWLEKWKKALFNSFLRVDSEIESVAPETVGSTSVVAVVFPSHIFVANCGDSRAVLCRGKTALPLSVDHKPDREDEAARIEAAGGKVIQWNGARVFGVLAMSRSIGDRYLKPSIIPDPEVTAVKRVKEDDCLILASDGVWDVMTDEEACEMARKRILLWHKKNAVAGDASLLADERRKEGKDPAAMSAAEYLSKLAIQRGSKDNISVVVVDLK
S87I: 48%
Y53P: -0.307%
K168L: -2.78%
S171L: 16.1%
W134G: 12.3%
C72S: 24.4%
R123H: 24.4%
E14A: 5.5%
S26R: 2.11%
H55M: 17.8%
S11H: 10.2%
A30C: 5.92%
H122Q: 2.24%
A35Y: -1.17%

Series 2 — method: protein-binding microarray; molecule type: double-stranded DNA, one strand shown; matrix: in vitro; concentration: 250 nM; setting: 60-bp whole probe; added: salmon DNA 0.4 mg/ml; relative to: random background probes; reading: higher = stronger binding; endpoint: log fluorescence; constant ends, left off below: GCCTAGCAC … GTCTTGATTCGCTTGACGCTGCTG
Target: Interferon regulatory factor 5, full length, phosphomimetic (IRF5, Homo sapiens, UniProt Q13568-2, residues 1-514, K96S/S451D/S453D/S456D/S462D)
GACGATCCCAGTTTCGAGACGTGCTAG: 4.74 z-score
AGGAAGATCATTCTCACTGCGTGCTAG: -0.0171 z-score
TCAGTTACCCCTCATCAAACTGTGCTA: -0.0165 z-score
GACGGACTGATTCTCCTGACGTGCTAG: -0.171 z-score
TCAGTCATCTATAATGGAACTGTGCTA: 0.474 z-score
TTGGAACTGGGGTATCGATTAGTGCTA: 2.41 z-score
GACGGACTGGACTATCGGGTCGTGCTA: 1.63 z-score
GACGGTTTCGGTATCGGGTCGTGCTAG: 10.5 z-score
GACGGTCTCGGGACTGGGGACGTGCTA: -0.468 z-score
TCATATATATAATATATAACTGTGCTA: 0.881 z-score
AACTTTGGTATCTGGCATCTGTGCTAG: 0.623 z-score
GACGGTATCGGTTGCGGGACGTGCTAG: 5.87 z-score
TCATATTGCTTTCTCTTACTGTGCTAG: 2.57 z-score
GACGATATCAGTATCGCGACGTGCTAG: 1.41 z-score
TCAGCTATGTTGTCCAGGACTGTGCTA: -0.169 z-score
TCTGTTTTTGCTTTCCTTTAGTGCTAG: 2.32 z-score
TTAGATTTCGGTTCCGATTAGTGCTAG: 8.33 z-score
TGTTTTTCATTTTTTTTCATGTGCTAG: 2.67 z-score
GACGGTTTCAGTATCGAGACGTGCTAG: 5.75 z-score
TTAGGTATCGGATTTCGGTTAGTGCTA: 6.13 z-score
CACTATTTAAGACCTATGCACGTGCTA: 0.363 z-score
GACGGTATCGATTTCGGGACGTGCTAG: 5.78 z-score
TCAGCTTTTTTTCCGAGACTGTGCTAG: 0.396 z-score

Series 3 — method: RNA Bind-n-Seq; molecule type: RNA; matrix: in vitro; concentration: not given; relative to: input RNA pool; reading: higher = stronger binding; endpoint: bound/input enrichment
Target: RING finger protein unkempt homolog, zinc fingers 1-6, GST-SBP tag (UNK, Homo sapiens, UniProt Q9C0B0, residues 30-357)
Setting: RNA with constant flanks, human-mouse chimeric sites, ends assumed
Target sequence (chain): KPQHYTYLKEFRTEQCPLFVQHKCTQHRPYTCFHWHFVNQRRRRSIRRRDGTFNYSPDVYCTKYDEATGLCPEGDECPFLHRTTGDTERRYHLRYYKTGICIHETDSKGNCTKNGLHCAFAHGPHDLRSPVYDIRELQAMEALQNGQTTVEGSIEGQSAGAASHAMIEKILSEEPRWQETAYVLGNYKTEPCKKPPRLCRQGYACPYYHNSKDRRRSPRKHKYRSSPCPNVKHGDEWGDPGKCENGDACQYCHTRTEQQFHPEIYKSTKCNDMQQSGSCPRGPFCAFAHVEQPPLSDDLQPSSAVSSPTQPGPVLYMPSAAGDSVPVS
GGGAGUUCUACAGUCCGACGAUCGUUGCCAGCUUCCGGUUCCGUUGGGCUCGGUUCUCUCCUGAGCUACGUGUCUCUACGUUUUAGGUGUGCCAUCCAACAAACAUGGAUCAGGUAAUGCAGUUUGUGGAGCCCAGCCGGCAGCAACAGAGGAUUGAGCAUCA: 0.115 ratio
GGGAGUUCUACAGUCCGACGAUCUUGCCUGAGAACGAGGAUGAAUUGGAGAGCACCAACAGGCGCUACACCAAGAGGGACUGCAGCACUUUCCUCAGAACUAGUGAGACGGGCAUCGUGGACCAGGUCAUGGUCACUCUCAACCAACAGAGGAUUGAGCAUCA: 0.181 ratio
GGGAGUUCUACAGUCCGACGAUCGUACUGCAGCAGCAGGGAAAACUGCAGGAAGCACUGAUGCAUUAUAAGGAGGCUAUUCGAAUCAGUCCUACCUUUGCUGAUGCCUACUCCAAUAUGGGAAACACUCUAAAGGAGAUGCAGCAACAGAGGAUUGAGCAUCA: 0.247 ratio
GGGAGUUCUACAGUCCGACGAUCAGAGAUAAAGCAUCUAGGAACAUGCGAGGCUCCCGGAUGAAUGGGUUGCCUAGCCCCACUCAUAGUGCCCACUGUAGCUUCUACCGAACCAGAACCUUGCAGGCACUGAGUAAUGAGAAGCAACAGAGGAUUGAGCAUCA: 0.0856 ratio
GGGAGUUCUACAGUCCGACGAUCUCUUAACGUCCAUUUAAAACUUAUUUUUAUAGCUAGAUAAAUAUUGUUAGUCUUAGACAAUAGCUCACAUUUUUUGAGAAGCAUGCCCUCCCUAUCCAUUUGUCUUAUAACAUGACCCAGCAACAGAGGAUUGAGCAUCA: 34 ratio
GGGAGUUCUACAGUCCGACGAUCAAUGUUCUUAAUAUUUUUGAAUAAAUGAAGCUAAAAUGUCUGCUUUUGGUACAACACGCAUUAAUAAAAGGUUAAGUUUUGUUUUCCCUCCACUGAAUAUUUAACAUCUCAGAAAAAAACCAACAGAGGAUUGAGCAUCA: 0.316 ratio
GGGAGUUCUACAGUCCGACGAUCGUUGCCAGCUUCCGGUUGGCCUCCAUCCGGUUCUCUCCUGAGCUACGUGUCUCUACGCUCUCAAUCCGCCAUCCAACAAACAUGGAUCAGGUAAUGCUGCAGUUUGUGCCCAGCCGGCAGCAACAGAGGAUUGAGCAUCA: 0.18 ratio
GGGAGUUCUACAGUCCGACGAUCGGCCUGGACCUUCCUGGGGCUAGUACAAAUAGCGGCAUGGAGGCUCAGAGAGGAAAGUUUGUUAGUGGAGGCAGUGGUAGAGGCCGUCAUGUACGGUCCUUUACUCGAUAGAUGUGUUCUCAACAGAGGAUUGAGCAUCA: 0.221 ratio
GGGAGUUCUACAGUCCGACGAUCGCAAAGGAUGAUGAGGCGGCAGCUGUUGCCCUUUCCUCUCUCGUUCAUGCUUUGGAUGAGUUAAACAUGGUGGCCAUAGUUCGAUAUGCUUAUGACAAAAGAUCUAAUCCUCAAGUUGGUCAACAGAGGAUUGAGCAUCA: 0.824 ratio
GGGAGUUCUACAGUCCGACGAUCAGAGAAAUGAGAAAGAAUCUUACACAAGAAGAGAUGCAAAGAAUGUCUACUAGAGUCCUUUUAGCCACUCUUUCCAUUCCUAUUACUCCUGAGCGAACUGAUAUUGCUCGACUUCUGGAUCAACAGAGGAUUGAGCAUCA: 0.353 ratio
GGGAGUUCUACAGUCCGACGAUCACUCUUGACUCUUUCCAUCCUCUUCCUUUCCCUCUUGAUAUUCAAGGCCAUGAAUCCCAAAAUAACAGUCUUAGUGGCUAGCACCCACCCAAACUGAGAAUAAAUCCAAACUGACAACUCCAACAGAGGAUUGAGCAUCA: 0.528 ratio

Series 4 — target: CCNF, cyclin fold, Cln2 fusion (human); method: yeast growth competition, sequencing; matrix: yeast; setting: strong parent motif; relative to: not given; reading: higher = stronger binding; endpoint: normalised enrichment score
Parent: E2F1 docking peptide (human); PPVKRRLDFETDH; partner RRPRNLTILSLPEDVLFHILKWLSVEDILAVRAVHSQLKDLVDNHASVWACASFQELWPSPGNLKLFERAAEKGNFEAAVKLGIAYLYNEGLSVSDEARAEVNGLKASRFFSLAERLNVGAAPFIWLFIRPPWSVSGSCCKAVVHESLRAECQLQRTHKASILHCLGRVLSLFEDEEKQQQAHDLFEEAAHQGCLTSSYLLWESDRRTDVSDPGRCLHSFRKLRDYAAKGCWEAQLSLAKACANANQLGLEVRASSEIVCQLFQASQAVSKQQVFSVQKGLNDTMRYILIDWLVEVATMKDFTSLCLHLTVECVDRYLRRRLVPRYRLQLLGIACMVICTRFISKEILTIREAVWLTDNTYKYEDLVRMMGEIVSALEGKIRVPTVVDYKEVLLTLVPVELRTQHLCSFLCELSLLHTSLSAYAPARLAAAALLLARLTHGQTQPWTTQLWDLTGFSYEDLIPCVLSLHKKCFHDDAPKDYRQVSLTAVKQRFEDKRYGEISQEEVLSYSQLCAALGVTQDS
PPVKRRLDFETWH [D12W]: 8.32
PPDKRRLDFETDH [V3D]: 1.03
PPVKRTLDFETDH [R6T]: 6.8
PPVKRRLDFITDH [E10I]: 7.74
PPVVRRLDFETDH [K4V]: 7.04
PPVHRRLDFETDH [K4H]: 7.49
PPVKRRLDFATDH [E10A]: 7.62
PPVKRRRDFETDH [L7R]: 0.205
PPVQRRLDFETDH [K4Q]: 7.22
PPVKRRLDFETIH [D12I]: 8.1
PPVKRRLDFETTH [D12T]: 7.42
PPVWRRLDFETDH [K4W]: 7.2
PPVKRRLDDETDH [F9D]: -0.0444
PPVKRRLDFEIDH [T11I]: 7.1
PQVKRRLDFETDH [P2Q]: 7.84
PPVERRLDFETDH [K4E]: 5.46
PPVKRSLDFETDH [R6S]: 7.1
PPVKRRLDFEKDH [T11K]: 7.29
PPVKCRLDFETDH [R5C]: 2.98
PPVKRRLDFEPDH [T11P]: 7.66
PPLKRRLDFETDH [V3L]: 5.91
PPVKRRYDFETDH [L7Y]: 0.153
PPVKRMLDFETDH [R6M]: 7.2
PPVKRRNDFETDH [L7N]: 0.182
PPVKRRGDFETDH [L7G]: -0.321

Series 5 — target: CREBZF, bZIP domain (human); method: DHFR protein complementation; matrix: yeast; relative to: wild-type JUN-FOS pair; reading: higher = stronger binding; endpoint: binding fitness
Setting: single substitutions, most at no-binding floor
Parent: JUN, bZIP domain (human); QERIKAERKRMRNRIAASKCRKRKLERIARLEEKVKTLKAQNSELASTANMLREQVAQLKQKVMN; partner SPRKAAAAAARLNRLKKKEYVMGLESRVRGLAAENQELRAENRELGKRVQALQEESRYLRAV
R53V: -1.55 natural log
I28H: -1.64 natural log
A46K: -1.38 natural log
S47V: -1.29 natural log
L52K: -1.56 natural log
A29E: -1.47 natural log
V56Q: -1.55 natural log
R53D: -1.58 natural log
K39M: -1.42 natural log
A46R: -1.54 natural log
S47N: -1.32 natural log
A29P: -1.25 natural log
I28K: -1.52 natural log
R30F: -1.34 natural log
R53M: -1.48 natural log

Single results of other studies
PhoQ, residues 284 288 289 292 302 303 SCKMEA  fold induction (PhoP, residues 12 14 15 18 19 GQALL (Escherichia coli, UniProt P23836); Sort-seq, item: YFP reporter; E. coli; PhoQ-PhoP variant library, added: 10 µM Mg2+; relative to: high Mg2+ state, higher = stronger signaling): 3.33

For quick reference, copied from above (series 4):
PPVKRRRDFETDH [L7R]: 0.205
PPVQRRLDFETDH [K4Q]: 7.22
PPVKRRLDFETIH [D12I]: 8.1
PPVKRRLDFETTH [D12T]: 7.42
PPVWRRLDFETDH [K4W]: 7.2
PPVKRRLDDETDH [F9D]: -0.0444
PPVKRRLDFEIDH [T11I]: 7.1
PQVKRRLDFETDH [P2Q]: 7.84
PPVERRLDFETDH [K4E]: 5.46
